Results collected from several papers.
Lines come from different studies, so protocols differ. “And” joins repeats or separate records; there may be more than shown. ± marks the error that the study gave. ≈ marks a conversion by molar mass, not a printed value.
GLP1R: Glucagon-like peptide 1 receptor (GLP1R, Homo sapiens, UniProt P43220)
Chain of UniProt P04629 (whole entry, looked up): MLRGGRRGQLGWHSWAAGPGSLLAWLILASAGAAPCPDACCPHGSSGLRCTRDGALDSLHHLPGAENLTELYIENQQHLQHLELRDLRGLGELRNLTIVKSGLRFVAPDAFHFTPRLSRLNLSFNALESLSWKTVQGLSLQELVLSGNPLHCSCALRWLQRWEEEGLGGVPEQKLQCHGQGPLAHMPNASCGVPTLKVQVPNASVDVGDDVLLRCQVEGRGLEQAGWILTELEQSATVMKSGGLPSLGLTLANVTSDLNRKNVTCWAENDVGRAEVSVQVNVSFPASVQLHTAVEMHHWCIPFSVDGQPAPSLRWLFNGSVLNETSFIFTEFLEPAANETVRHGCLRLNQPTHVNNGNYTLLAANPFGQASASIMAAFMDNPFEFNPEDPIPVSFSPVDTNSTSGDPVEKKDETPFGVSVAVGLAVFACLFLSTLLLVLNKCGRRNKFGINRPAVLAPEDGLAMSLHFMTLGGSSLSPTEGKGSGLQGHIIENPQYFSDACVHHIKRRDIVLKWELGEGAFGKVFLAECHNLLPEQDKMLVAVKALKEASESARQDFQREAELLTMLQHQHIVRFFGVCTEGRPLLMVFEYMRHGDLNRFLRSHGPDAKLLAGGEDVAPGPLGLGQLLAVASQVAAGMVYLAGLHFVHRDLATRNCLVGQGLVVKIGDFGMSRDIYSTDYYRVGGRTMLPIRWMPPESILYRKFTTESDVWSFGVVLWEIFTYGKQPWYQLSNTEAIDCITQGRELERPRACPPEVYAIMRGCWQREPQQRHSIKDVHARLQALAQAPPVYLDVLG
Chain of UniProt Q9UM73 (whole entry, looked up): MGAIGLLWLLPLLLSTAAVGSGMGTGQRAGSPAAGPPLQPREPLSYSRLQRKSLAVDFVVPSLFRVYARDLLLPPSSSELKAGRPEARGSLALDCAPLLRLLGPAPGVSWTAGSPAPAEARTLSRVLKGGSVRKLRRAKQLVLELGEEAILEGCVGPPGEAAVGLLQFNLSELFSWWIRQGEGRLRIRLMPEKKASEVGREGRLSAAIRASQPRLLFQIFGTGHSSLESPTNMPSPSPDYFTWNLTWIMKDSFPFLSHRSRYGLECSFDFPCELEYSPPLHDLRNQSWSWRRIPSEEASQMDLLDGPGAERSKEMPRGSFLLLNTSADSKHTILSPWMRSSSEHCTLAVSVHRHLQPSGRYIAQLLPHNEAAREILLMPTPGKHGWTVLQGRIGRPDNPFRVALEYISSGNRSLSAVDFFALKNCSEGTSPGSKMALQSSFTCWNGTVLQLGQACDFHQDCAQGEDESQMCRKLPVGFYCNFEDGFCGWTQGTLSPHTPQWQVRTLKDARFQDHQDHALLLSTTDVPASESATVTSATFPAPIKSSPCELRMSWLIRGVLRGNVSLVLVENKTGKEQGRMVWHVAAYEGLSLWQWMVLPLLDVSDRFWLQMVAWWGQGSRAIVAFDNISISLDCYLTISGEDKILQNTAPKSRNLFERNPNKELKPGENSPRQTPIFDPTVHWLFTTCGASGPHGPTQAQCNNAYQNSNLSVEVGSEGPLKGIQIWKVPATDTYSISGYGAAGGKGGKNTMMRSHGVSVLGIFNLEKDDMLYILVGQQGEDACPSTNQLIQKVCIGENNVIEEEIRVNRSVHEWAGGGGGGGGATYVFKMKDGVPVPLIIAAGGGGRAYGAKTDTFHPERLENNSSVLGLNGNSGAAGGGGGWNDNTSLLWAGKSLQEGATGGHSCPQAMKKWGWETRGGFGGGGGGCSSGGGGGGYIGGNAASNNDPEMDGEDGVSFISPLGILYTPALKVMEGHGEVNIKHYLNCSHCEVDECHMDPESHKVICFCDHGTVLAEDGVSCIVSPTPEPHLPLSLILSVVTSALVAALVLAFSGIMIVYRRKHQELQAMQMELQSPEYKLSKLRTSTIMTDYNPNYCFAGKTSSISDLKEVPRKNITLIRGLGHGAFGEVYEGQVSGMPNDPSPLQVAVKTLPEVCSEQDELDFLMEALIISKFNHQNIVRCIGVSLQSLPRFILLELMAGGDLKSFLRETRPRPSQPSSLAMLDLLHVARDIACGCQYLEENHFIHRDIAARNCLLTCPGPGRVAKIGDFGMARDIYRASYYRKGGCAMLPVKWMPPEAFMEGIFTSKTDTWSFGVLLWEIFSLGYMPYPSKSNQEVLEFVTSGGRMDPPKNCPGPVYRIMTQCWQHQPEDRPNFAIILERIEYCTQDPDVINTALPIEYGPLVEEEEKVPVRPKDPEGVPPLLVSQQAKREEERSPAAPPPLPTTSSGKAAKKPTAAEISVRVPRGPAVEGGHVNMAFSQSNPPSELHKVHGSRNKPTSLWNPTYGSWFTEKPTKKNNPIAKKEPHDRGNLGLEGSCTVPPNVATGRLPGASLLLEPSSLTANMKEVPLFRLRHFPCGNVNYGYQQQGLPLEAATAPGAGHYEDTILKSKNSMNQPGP

| Structure (SMILES) | target or system | assay | system | conditions | scale | measurement | value |
| --- | --- | --- | --- | --- | --- | --- | --- |
| CO[C@H]1C[C@@H]2CC[C@@H](C)[C@@](O)(O2)C(=O)C(=O)N2CCCC[C@H]2C(=O)O[C@H]([C@H](C)C[C@@H]2CC[C@@H](OC(=O)NCCOCCOCCOCCOCCOCCOCCOCCOCCC(=O)N3CCc4cc(Cn5nc(-c6ccc7oc(N)nc7c6)c6c(N)ncnc65)ccc4C3)[C@H](OC)C2)C[C@@H](O)[C@H](C)/C=C(\C)[C@@H](O)[C@@H](OC)C(=O)[C@H](C)C[C@H](C)/C=C/C=C/C=C/1C |  |  | patients with advanced solid tumours | intravenous, 6 mg weekly, any grade |  | AE leading to dose interruption | 66.7% |
| O=c1[nH]c2cc(CO)c(Cl)cc2c(=O)n1Cc1cccnc1 | Mycobacterium tuberculosis |  | PptT conditional knockdown |  |  | MIC90 | 0.57 µM (≈ 0.181 µg/mL) |
| C[C@H]1CN(c2n[nH]c3nc(N[C@H]4CC[C@H](NS(=O)(=O)CCC(F)(F)F)CC4)ncc23)CCO1 | NTRK1 (Homo sapiens, UniProt P04629) | inhibitor, Kinobeads competition profiling |  | 0.16 µM | relative to: vehicle | relative abundance | 1.08 |
| CNC1(c2ccccc2Cl)CCCCC1=O (racemic) | AMPA receptor | radioligand binding, agonist, radioligand displacement |  | 30 µM |  | inhibition | 2% |
| COc1ccc(-c2cc(C(F)(F)F)c3c(N)c(C(=O)NCCc4ccccc4)sc3n2)cc1 | Mycobacterium tuberculosis | growth inhibition | H37Rv LepB under-expressing |  |  | IC50 | > 100000 nM |
| COc1cc2c(Oc3ccc4[nH]c(C)cc4c3F)ccnc2cc1OCC1(N)CC1 |  |  | paediatric recurrent refractory sarcoma | 12 mg |  | grade 1 or 2 Dizzy | 9.1% |
| COc1ccc(-c2cc(C(F)(F)F)c3c(N)c(C(=O)Nc4ccccc4)sc3n2)cc1 | Mycobacterium tuberculosis | growth inhibition | H37Rv LepB under-expressing |  |  | IC50 | > 100000 nM |
| O=C(OCc1ccccc1)OCc1cc2[nH]c(=S)n(Cc3cccnc3)c(=O)c2cc1Cl | Mycobacterium tuberculosis |  | H37Rv |  |  | MIC90 | 88.7 µM (≈ 41.5 µg/mL) |
| CC[C@H](C)[C@@H]1NC(=O)[C@@H]2CCCN2C(=O)[C@H](CC(C)C)NC(=O)[C@H](CC(C)C)NC(=O)CNC(=O)[C@@H](NC(=O)[C@@H](NC(=O)[C@H](CC(=O)O)NC(=O)CNC(=O)[C@@H](NC(=O)[C@H](C)NC(=O)CNC(=O)[C@H](CCCCN)NC(=O)[C@H](CC(C)C)NC(=O)[C@H](CC(C)C)NC(=O)[C@H](CCCCN)NC(=O)CNC(=O)[C@@H](NC(=O)[C@@H](N)CC(C)C)C(C)C)C(C)C)C(C)C)CSSC[C@@H](C(=O)O)NC1=O |  | RNA-seq, item: Fam110c | mouse, traumatic brain injury model, frontal cortex and hippocampus | dose not given | relative to: TBI alone | log2 fold change | -2.71 |
| [2H]c1c([2H])c([C@]2([2H])CCCN2C(=O)C(C)(C)Oc2ccc3cn[nH]c3c2)c([2H])c([2H])c1C([2H])([2H])[2H] | ALK (Homo sapiens, UniProt Q9UM73) | KINOMEscan |  | 1 µM | relative to: DMSO control | remaining binding | 100% |
| CCOC(=O)C1=C[C@@H](OC(CC)CC)[C@H](NC(C)=O)[C@@H](N)C1 | Influenza A virus | viral replication | MDCK, A/WSN/1933 (H1N1) | 48 h |  | EC50 | 2170 ± 240 nM |
| Cc1cscc1-c1ccc(OCCc2cc(F)cc(F)c2)c(C(N)=O)c1 | Mycobacterium tuberculosis | growth | H37Rv-LP | 120 h |  | IC90 | 620 ± 50 nM |
| CC[C@H](C)[C@H](NC(=O)[C@H](Cc1ccccc1)NC(=O)[C@H](CCC(=O)O)NC(=O)[C@H](CCCNC(=N)N)NC(=O)[C@H](C)NC(=O)[C@H](C)NC(=O)[C@H](CCC(N)=O)NC(=O)[C@H](CCC(=O)O)NC(=O)[C@H](CCC(=O)O)NC(=O)[C@H](CC(C)C)NC(=O)[C@H](Cc1ccc(O)cc1)NC(=O)[C@H](CO)NC(=O)[C@H](CO)NC(=O)[C@H](CCCCNc1c(NCCCCCN(O)C(=O)CCC(=O)NCCCCCN(O)C(=O)CCC(=O)NCCCCCN(O)C(C)=O)c(=O)c1=O)NC(=O)[C@H](CC(=O)O)NC(=O)[C@H](CO)NC(=O)[C@@H](NC(=O)[C@H](Cc1ccccc1)NC(=O)[C@@H](NC(=O)CNC(=O)[C@H](CCC(=O)O)NC(=O)[C@H](C)NC(=O)CCc1cnc[nH]1)[C@@H](C)O)[C@@H](C)O)C(=O)N[C@@H](C)C(=O)N[C@@H](Cc1c[nH]c2ccccc12)C(=O)N[C@@H](CC(C)C)C(=O)N[C@H](C(=O)N[C@@H](CCCCNc1c(NCCCCCN(O)C(=O)CCC(=O)NCCCCCN(O)C(=O)CCC(=O)NCCCCCN(O)C(C)=O)c(=O)c1=O)C(=O)NCC(=O)N[C@@H](CCCNC(=N)N)C(=O)N[C@@H](CCCCNC(=O)COCCOCCNC(=O)COCCOCCNC(=O)CC[C@H](NC(=O)CCCCCCCCCCCCCCCCC(=O)O)C(=O)O)C(=O)O)C(C)C | GLP1R | cAMP reporter gene, agonist, CRE luciferase | BHK | without Zr, 0% HSA |  | EC50 | 0.12 nM |
| Cc1cccc(NC(=O)c2sc3nc(-c4ccco4)cc(C(F)(F)F)c3c2N)c1C | Mycobacterium tuberculosis | growth inhibition | H37Rv LepB under-expressing |  |  | IC50 | > 100000 nM |
| O=c1c2cc(Cl)ncc2[nH]c(=S)n1Cc1cccnc1 | Mycobacterium tuberculosis |  | PptT conditional knockdown |  |  | MIC90 | 0.35 µM (≈ 0.107 µg/mL) |
| Cc1ccc(OCCc2cc(F)cc(F)c2)c(C(=O)NC(C)C)c1 | Mycobacterium tuberculosis |  | H37Rv-LP |  | relative to: HepG2 CC50 over Mtb IC90 | selectivity index | 2 |
| OC(Cn1cncn1)(Cn1cncn1)c1ccc(F)cc1F | Saccharomyces cerevisiae | cell growth | Pdr5 deleted, empty vector | 2^-1.152 µg/mL |  | OD600 | 0.063 and 0.074 and 0.064 |
| Cc1ccc(OCCc2cccc(F)c2)c(C(N)=O)c1 | Mycobacterium tuberculosis | growth | H37Rv-LP | 120 h |  | IC90 | 620 ± 180 nM |

| Structure (SMILES) | target or system | assay | system | conditions | scale | measurement | value |
| --- | --- | --- | --- | --- | --- | --- | --- |
| COc1ccc(-c2cc(C(F)(F)F)c3c(N)c(C(=O)Nc4c(C)cccc4C)sc3n2)cc1 | Mycobacterium tuberculosis |  | H37Rv wild type | 120 h |  | IC90 | inactive |
| CC[C@H](C)[C@H](NC(=O)[C@H](Cc1ccccc1)NC(=O)[C@H](CCC(=O)O)NC(=O)[C@H](CCCNC(=N)N)NC(=O)[C@H](C)NC(=O)[C@H](C)NC(=O)[C@H](CCC(N)=O)NC(=O)[C@H](CCC(=O)O)NC(=O)[C@H](CCC(=O)O)NC(=O)[C@H](CC(C)C)NC(=O)[C@H](Cc1ccc(O)cc1)NC(=O)[C@H](CO)NC(=O)[C@H](CO)NC(=O)[C@@H](NC(=O)[C@H](CC(=O)O)NC(=O)[C@H](CO)NC(=O)[C@@H](NC(=O)[C@H](Cc1ccccc1)NC(=O)[C@@H](NC(=O)CNC(=O)[C@H](CCC(=O)O)NC(=O)[C@H](C)NC(=O)CCc1cnc[nH]1)[C@@H](C)O)[C@@H](C)O)C(C)C)C(=O)N[C@@H](C)C(=O)N[C@@H](Cc1c[nH]c2ccccc12)C(=O)N[C@@H](CC(C)C)C(=O)N[C@H](C(=O)N[C@@H](CCCNC(=N)N)C(=O)NCC(=O)N[C@@H](CCCNC(=N)N)C(=O)N[C@@H](CCCCNC(=O)COCCOCCNC(=O)COCCOCCNC(=O)CC[C@H](NC(=O)CCCCCCCCCCCCCCCCC(=O)O)C(=O)O)C(=O)NCC(=O)NCC(=O)N[C@@H](CO)C(=O)N[C@@H](CCSC)C(=O)N[C@H](C(=O)N[C@@H](CCCCNc1c(NCCCCCN(O)C(=O)CCC(=O)NCCCCCN(O)C(=O)CCC(=O)NCCCCCN(O)C(C)=O)c(=O)c1=O)C(=O)O)C(C)C)C(C)C | GLP1R | cAMP reporter gene, agonist, CRE luciferase | BHK | with Zr, 1% HSA |  | EC50 | 0.1 nM |
| N#Cc1ccc(Cn2c(=S)[nH]c3ccc(Cl)cc3c2=O)cn1 | Mycobacterium tuberculosis |  | PptT conditional knockdown |  |  | MIC90 | 1.87 µM (≈ 0.615 µg/mL) |
| O=C(c1cc2ccc(-c3ccccc3)nc2s1)N1CCCC1 | Mycobacterium tuberculosis | growth inhibition | H37Rv LepB under-expressing |  |  | IC50 | > 100000 nM |
| O=c1c2cc(C(F)(F)F)ccc2[nH]c(=S)n1Cc1cccnc1 | Mycobacterium tuberculosis |  | PptT conditional knockdown |  |  | MIC90 | 26.3 µM (≈ 8.87 µg/mL) |
| C=C(C)c1ccc(OCCc2cccc(F)c2)c(C(N)=O)c1 | Mycobacterium tuberculosis | growth | H37Rv-LP | 120 h |  | IC90 | 480 ± 270 nM |
| Cc1cc2c(=O)n(Cc3cccnc3)c(=S)[nH]c2cn1 | Mycobacterium tuberculosis |  | PptT conditional knockdown |  |  | MIC90 | 0.21 µM (≈ 0.0597 µg/mL) |
| CNC(=O)c1cc(C)ccc1OCCc1cc(F)cc(F)c1 | Mycobacterium tuberculosis | growth | H37Rv-LP | 120 h |  | IC90 | 360 ± 320 nM |
| NC(=O)c1cc2[nH]c(=S)n(Cc3cccnc3)c(=O)c2cc1Cl | Mycobacterium tuberculosis |  | PptT conditional knockdown |  |  | MIC90 | 1.04 µM (≈ 0.361 µg/mL) |
| CC(=O)c1ccc(OCCc2cccc(F)c2)c(C(N)=O)c1 | Mycobacterium tuberculosis |  | H37Rv-LP |  | relative to: HepG2 CC50 over Mtb IC90 | selectivity index | > 28 |
| COc1ccc(-c2cc(C(F)(F)F)c3c(N)c(C(=O)NCc4cccc(C)c4C)sc3n2)cc1 | Mycobacterium tuberculosis | growth inhibition | H37Rv LepB under-expressing |  |  | IC50 | 800 ± 100 nM |
| CNC(=O)c1cc(C)cnc1OCCc1cccc(F)c1 | Mycobacterium tuberculosis |  | H37Rv-LP |  | relative to: HepG2 CC50 over Mtb IC90 | selectivity index | 4 |
| COc1ccc(-c2cc(C(F)(F)F)c3c(N)c(C(=O)Nc4cc(C)ccc4C)sc3n2)cc1 | Mycobacterium tuberculosis |  | H37Rv wild type |  | relative to: HepG2 IC50 over M. tuberculosis IC90 | selectivity index | < 1 |
| Cc1ccc2[nH]c(=S)n(Cc3cccnc3)c(=O)c2c1 | Mycobacterium tuberculosis |  | PptT conditional knockdown |  |  | MIC90 | 2.5 µM (≈ 0.708 µg/mL) |
| C[C@@H](O)[C@H](NC(=O)[C@@H]1CSSC[C@H](NC(=O)[C@@H](Cc2ccccc2)NC(=O)CN2CCN(CC(=O)[O-])CCN(CC(=O)[O-])CCN(CC(=O)[O-])CC2)C(=O)N[C@@H](Cc2ccc(O)cc2)C(=O)N[C@H](Cc2c[nH]c3ccccc23)C(=O)N[C@@H](CCCCN)C(=O)N[C@@H]([C@@H](C)O)C(=O)N1)C(=O)O.[177Lu+3] | MEC1 |  |  | 120 min, 37 °C |  | cell uptake | 2.03% |
| Cc1nc(OCCc2cc(F)cc(F)c2)c(C(=O)NC(C)C)s1 | Mycobacterium tuberculosis | growth | H37Rv-LP | 120 h |  | IC90 | 59000 ± 17000 nM |
| COc1ccc(-c2cc(C(F)(F)F)c3c(N)c(C(=O)N4CC5(CCOC5)C4)sc3n2)cc1 | Mycobacterium tuberculosis | growth inhibition | H37Rv LepB under-expressing |  |  | IC50 | 12000 ± 10000 nM |

Repeated from above:
| Structure (SMILES) | target or system | assay | system | conditions | scale | measurement | value |
| --- | --- | --- | --- | --- | --- | --- | --- |
| COc1ccc(-c2cc(C(F)(F)F)c3c(N)c(C(=O)Nc4ccccc4)sc3n2)cc1 | Mycobacterium tuberculosis | growth inhibition | H37Rv LepB under-expressing |  |  | IC50 | > 100000 nM |
| O=C(OCc1ccccc1)OCc1cc2[nH]c(=S)n(Cc3cccnc3)c(=O)c2cc1Cl | Mycobacterium tuberculosis |  | H37Rv |  |  | MIC90 | 88.7 µM (≈ 41.5 µg/mL) |
| CC[C@H](C)[C@@H]1NC(=O)[C@@H]2CCCN2C(=O)[C@H](CC(C)C)NC(=O)[C@H](CC(C)C)NC(=O)CNC(=O)[C@@H](NC(=O)[C@@H](NC(=O)[C@H](CC(=O)O)NC(=O)CNC(=O)[C@@H](NC(=O)[C@H](C)NC(=O)CNC(=O)[C@H](CCCCN)NC(=O)[C@H](CC(C)C)NC(=O)[C@H](CC(C)C)NC(=O)[C@H](CCCCN)NC(=O)CNC(=O)[C@@H](NC(=O)[C@@H](N)CC(C)C)C(C)C)C(C)C)C(C)C)CSSC[C@@H](C(=O)O)NC1=O |  | RNA-seq, item: Fam110c | mouse, traumatic brain injury model, frontal cortex and hippocampus | dose not given | relative to: TBI alone | log2 fold change | -2.71 |
| [2H]c1c([2H])c([C@]2([2H])CCCN2C(=O)C(C)(C)Oc2ccc3cn[nH]c3c2)c([2H])c([2H])c1C([2H])([2H])[2H] | ALK (Homo sapiens, UniProt Q9UM73) | KINOMEscan |  | 1 µM | relative to: DMSO control | remaining binding | 100% |
| CCOC(=O)C1=C[C@@H](OC(CC)CC)[C@H](NC(C)=O)[C@@H](N)C1 | Influenza A virus | viral replication | MDCK, A/WSN/1933 (H1N1) | 48 h |  | EC50 | 2170 ± 240 nM |
| Cc1cscc1-c1ccc(OCCc2cc(F)cc(F)c2)c(C(N)=O)c1 | Mycobacterium tuberculosis | growth | H37Rv-LP | 120 h |  | IC90 | 620 ± 50 nM |
